{"data": "Published values collected from several papers", "note": "A part holds a random share of what one study measured."}
{"data": "Study 1", "target": "Sal-like protein 4, full length isoform B (SALL4, Homo sapiens, UniProt Q9UJQ4-2, residues 1-616)", "technique": "universal PBM", "form": "double-stranded DNA, one strand shown", "sample": "in vitro", "tested at": "not given", "setting": "8-mer, flanks averaged, mean of replicates", "direction": "higher = stronger binding", "Target sequence (chain)": "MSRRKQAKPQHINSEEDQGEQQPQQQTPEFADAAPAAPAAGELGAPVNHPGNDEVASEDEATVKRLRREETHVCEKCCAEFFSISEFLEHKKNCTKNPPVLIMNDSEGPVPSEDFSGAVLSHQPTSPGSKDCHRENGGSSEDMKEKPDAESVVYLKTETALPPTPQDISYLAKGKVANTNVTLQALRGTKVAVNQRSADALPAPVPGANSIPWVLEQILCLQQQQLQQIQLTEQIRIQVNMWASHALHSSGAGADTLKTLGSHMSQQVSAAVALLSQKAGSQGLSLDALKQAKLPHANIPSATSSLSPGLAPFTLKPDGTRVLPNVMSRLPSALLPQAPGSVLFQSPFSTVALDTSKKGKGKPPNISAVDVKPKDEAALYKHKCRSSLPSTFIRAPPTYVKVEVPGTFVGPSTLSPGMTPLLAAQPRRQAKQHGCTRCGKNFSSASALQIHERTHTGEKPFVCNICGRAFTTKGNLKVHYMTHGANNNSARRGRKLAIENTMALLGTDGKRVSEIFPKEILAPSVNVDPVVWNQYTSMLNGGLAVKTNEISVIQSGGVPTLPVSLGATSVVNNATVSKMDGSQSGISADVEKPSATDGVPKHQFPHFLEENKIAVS"}
{"Oligonucleotide": "TAGAACCA", "E-score": 0.0502}
{"Oligonucleotide": "AGCCGTAT", "E-score": 0.0729}
{"Oligonucleotide": "CGAACAAG", "E-score": -0.163}
{"Oligonucleotide": "ATCGGGTG", "E-score": -0.195}
{"Oligonucleotide": "AGACCGTG", "E-score": -0.212}
{"Oligonucleotide": "GGGCGAAC", "E-score": -0.202}
{"Oligonucleotide": "GCACTCCA", "E-score": -0.136}
{"Oligonucleotide": "GGGACATA", "E-score": 0.0242}
{"Oligonucleotide": "GACTTTGA", "E-score": 0.12}
{"Oligonucleotide": "CATGTAGC", "E-score": 0.0114}
{"Oligonucleotide": "GGTGCACC", "E-score": -0.3}
{"data": "Study 2", "target": "Histone acetyltransferase KAT6A, both winged helices, GST fusion (KAT6A, Homo sapiens, UniProt Q92794, residues 1-181)", "technique": "protein binding microarray", "form": "double-stranded DNA, one strand shown", "sample": "in vitro", "tested at": "not given", "setting": "8-mer, flanks averaged, mean of 2 arrays, mostly near background", "baseline": "not given", "direction": "higher = stronger binding", "Construct (chain)": "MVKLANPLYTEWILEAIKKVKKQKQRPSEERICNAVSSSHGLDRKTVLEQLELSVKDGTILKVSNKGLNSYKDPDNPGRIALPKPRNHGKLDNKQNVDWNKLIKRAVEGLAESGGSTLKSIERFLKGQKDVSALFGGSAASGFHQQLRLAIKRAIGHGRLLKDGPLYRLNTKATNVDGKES"}
{"Oligonucleotide": "ACAATAGT", "E-score": -0.108}
{"Oligonucleotide": "AAAAGAAG", "E-score": -0.131}
{"Oligonucleotide": "CAAAGTAA", "E-score": -0.0582}
{"Oligonucleotide": "GAGTACGA", "E-score": -0.0309}
{"Oligonucleotide": "AGCCCTAA", "E-score": -0.0509}
{"Oligonucleotide": "ATTGAAGC", "E-score": -0.0721}
{"Oligonucleotide": "CGAACAGA", "E-score": 0.00592}
{"Oligonucleotide": "AGTATGGA", "E-score": -0.138}
{"data": "Study 3", "target": "Centromere-binding protein 1, full length, His-tagged (CBF1, Saccharomyces cerevisiae, UniProt P17106, residues 1-351)", "technique": "competition protein-binding microarray", "form": "double-stranded DNA, one strand shown", "sample": "in vitro", "tested at": "2 µM", "setting": "whole 60-bp probe, lowest competitor level", "together with": "Pho4 competitor, 0.05 µM", "direction": "higher = stronger binding", "UniProt P17106, sequence (whole entry, looked up)": "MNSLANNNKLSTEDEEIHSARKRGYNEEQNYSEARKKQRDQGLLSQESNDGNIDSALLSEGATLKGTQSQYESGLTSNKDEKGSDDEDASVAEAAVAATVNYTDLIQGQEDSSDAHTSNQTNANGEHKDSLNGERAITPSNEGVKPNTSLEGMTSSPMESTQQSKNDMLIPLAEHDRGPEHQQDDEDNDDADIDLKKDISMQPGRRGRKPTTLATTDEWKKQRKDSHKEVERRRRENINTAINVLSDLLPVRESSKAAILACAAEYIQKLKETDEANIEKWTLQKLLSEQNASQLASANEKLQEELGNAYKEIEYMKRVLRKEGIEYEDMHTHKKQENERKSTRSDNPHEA"}
{"Oligonucleotide": "CGGGGTTAAGTTTGCACCGTGGGTGGCTTGCAGCAGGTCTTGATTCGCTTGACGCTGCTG", "fluorescence intensity [a.u.]": 74}
{"Oligonucleotide": "TATTATATTCTCCATCACGTTATTGAATATTTCGTTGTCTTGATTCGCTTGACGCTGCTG", "fluorescence intensity [a.u.]": 928}
{"Oligonucleotide": "AAAGCGGTAATTTGCCGTGTGGGTGCAGATATCTATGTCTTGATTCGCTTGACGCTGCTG", "fluorescence intensity [a.u.]": 78.7}
{"Oligonucleotide": "TGTTTGCTTGATCCACACGTGTATATAAAAATGTTTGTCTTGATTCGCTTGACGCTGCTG", "fluorescence intensity [a.u.]": 1440}
{"Oligonucleotide": "CGTCCTAGTGATTGGCCCGTGGGTGCCATGAGGAAGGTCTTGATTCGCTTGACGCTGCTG", "fluorescence intensity [a.u.]": 71.9}
{"data": "Other studies, line by line"}
{"Molecule": "PhoQ, residues 284 288 289 292 302 303 TLMATV", "target": "PhoP, residues 12 14 15 18 19 NQFFI (Escherichia coli, UniProt P23836)", "test": "Sort-seq, measured: YFP reporter", "system": "E. coli", "conditions": "PhoQ-PhoP variant library, together with: 10 µM Mg2+", "how to read": "baseline: high Mg2+ state, higher = stronger signaling", "quantity": "fold induction", "result": 13.9}
